Measurements gathered from unrelated publications.
Compare with care: the assays were run in different laboratories. ± gives the spread as reported.
GBA2: Beta-glucosidase (GBA2, Homo sapiens, UniProt Q9HCG7)
APP Aβ1-40: Amyloid-beta precursor protein, Aβ1-40 (APP, Homo sapiens, UniProt P05067)
Sigmar1: Sigma non-opioid intracellular receptor 1 (Sigmar1, Rattus norvegicus, UniProt Q9R0C9)
CTSK: Cathepsin K (CTSK, Homo sapiens, UniProt P43235)
SIRT3: NAD-dependent protein deacetylase sirtuin-3, mitochondrial (SIRT3, Homo sapiens, UniProt Q9NTG7)
SLC6A4: Sodium-dependent serotonin transporter (SLC6A4, Homo sapiens, UniProt P31645)
MGLL: Monoglyceride lipase (MGLL, Homo sapiens, UniProt Q99685)

Amino acid sequences for entries named in this document (tags omitted). A change or cut given only in a name is not applied to a line headed by its entry. Residues count along the entry.
UniProt Q9HCG7, whole entry: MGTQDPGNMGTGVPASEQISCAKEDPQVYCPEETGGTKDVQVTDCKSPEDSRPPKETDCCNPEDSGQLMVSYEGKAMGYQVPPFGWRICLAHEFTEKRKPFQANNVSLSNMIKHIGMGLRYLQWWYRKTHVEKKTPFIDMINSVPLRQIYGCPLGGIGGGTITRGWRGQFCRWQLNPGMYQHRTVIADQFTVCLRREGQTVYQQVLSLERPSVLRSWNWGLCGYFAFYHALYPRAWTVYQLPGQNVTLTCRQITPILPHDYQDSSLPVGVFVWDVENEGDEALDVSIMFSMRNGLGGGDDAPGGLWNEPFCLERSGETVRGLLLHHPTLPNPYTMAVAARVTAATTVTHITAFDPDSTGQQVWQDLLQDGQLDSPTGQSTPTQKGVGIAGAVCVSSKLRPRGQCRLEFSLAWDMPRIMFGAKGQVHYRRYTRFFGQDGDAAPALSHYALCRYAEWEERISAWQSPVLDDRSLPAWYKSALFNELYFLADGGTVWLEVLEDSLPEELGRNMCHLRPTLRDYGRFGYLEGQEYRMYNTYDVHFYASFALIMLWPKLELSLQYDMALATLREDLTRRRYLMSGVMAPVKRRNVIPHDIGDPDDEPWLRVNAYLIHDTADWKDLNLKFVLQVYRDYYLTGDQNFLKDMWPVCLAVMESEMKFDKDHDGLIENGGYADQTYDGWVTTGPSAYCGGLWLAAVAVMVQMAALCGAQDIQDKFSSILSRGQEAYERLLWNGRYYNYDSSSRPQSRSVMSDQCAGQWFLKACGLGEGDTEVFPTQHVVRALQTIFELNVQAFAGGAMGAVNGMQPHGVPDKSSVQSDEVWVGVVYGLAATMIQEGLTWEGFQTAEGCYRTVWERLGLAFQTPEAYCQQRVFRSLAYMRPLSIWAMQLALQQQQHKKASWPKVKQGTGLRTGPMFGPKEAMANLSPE
UniProt P05067, whole entry, looked up: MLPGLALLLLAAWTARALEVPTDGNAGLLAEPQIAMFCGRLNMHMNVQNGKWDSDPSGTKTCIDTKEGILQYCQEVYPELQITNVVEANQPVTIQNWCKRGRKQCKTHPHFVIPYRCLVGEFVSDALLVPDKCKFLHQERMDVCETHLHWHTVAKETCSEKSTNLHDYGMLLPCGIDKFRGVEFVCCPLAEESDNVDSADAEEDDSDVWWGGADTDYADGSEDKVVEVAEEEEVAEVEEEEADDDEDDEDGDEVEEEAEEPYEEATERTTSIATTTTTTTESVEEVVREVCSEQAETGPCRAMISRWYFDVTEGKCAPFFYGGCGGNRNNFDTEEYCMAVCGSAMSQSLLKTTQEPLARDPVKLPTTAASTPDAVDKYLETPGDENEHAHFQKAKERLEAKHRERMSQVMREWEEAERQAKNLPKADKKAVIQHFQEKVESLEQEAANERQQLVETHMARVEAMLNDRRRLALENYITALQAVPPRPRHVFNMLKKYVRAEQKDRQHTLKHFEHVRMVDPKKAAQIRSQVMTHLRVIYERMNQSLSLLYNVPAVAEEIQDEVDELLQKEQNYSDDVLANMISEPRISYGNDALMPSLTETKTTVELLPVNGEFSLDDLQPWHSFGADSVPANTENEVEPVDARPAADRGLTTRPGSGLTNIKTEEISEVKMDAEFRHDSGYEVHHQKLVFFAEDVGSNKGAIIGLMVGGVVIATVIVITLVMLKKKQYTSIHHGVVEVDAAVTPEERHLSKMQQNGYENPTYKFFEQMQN
UniProt P43235, 115-329 limits assumed: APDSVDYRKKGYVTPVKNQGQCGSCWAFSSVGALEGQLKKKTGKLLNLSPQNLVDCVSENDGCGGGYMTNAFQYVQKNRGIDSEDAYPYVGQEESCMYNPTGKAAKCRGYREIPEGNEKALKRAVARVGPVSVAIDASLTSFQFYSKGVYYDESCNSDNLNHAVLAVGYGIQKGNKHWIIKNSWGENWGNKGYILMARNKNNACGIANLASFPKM
UniProt Q9NTG7, whole entry, looked up: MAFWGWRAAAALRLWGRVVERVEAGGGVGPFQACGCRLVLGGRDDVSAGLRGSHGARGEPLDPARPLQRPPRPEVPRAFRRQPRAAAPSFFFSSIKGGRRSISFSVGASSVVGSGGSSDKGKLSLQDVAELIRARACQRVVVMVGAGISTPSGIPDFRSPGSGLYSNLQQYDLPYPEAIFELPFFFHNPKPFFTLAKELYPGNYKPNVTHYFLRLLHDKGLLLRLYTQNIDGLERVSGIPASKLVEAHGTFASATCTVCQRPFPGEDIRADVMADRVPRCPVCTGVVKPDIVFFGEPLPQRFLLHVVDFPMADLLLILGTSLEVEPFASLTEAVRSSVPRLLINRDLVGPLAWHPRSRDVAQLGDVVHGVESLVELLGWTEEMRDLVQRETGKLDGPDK
UniProt Q99685, whole entry: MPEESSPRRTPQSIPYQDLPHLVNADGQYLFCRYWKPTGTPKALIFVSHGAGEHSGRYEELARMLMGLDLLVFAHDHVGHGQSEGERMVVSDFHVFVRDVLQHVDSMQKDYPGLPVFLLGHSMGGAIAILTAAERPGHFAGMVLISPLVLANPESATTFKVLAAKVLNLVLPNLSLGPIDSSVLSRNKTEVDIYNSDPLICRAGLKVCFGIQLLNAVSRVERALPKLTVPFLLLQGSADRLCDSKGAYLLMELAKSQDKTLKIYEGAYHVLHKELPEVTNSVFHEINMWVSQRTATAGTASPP
UniProt Q6PE15, 44-297 limits assumed: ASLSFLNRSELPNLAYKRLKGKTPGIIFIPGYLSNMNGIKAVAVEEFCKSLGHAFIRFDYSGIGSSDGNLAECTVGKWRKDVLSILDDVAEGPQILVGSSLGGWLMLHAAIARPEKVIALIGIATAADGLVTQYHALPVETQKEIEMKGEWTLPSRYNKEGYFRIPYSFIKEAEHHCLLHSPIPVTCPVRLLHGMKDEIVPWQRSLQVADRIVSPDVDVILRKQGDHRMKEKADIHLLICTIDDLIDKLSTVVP
UniProt P06493, whole entry: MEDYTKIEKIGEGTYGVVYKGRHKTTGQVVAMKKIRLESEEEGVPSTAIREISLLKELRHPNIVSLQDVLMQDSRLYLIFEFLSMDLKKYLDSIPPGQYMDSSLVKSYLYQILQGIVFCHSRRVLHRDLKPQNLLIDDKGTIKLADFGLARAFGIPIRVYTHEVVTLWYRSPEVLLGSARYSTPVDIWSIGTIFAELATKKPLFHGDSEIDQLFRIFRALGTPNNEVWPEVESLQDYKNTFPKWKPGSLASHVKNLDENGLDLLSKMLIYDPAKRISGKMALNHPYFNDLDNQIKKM
UniProt Q8N6T7, whole entry: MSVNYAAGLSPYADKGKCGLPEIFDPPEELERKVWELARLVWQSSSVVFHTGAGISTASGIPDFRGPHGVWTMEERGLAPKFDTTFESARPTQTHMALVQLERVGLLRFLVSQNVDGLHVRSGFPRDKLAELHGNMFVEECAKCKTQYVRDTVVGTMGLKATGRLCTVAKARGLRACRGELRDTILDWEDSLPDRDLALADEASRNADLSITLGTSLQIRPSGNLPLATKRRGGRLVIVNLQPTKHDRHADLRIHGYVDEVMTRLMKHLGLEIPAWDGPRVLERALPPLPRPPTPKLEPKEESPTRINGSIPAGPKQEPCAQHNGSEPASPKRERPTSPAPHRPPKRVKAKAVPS
UniProt O75365, whole entry, looked up, stated change not applied: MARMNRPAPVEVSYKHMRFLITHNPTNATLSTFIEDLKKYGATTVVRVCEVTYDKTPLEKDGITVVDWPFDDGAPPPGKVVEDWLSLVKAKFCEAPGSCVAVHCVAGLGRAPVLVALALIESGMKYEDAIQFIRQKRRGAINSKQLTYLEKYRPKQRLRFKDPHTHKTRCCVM
UniProt Q9P2P5, 1237-1572 limits assumed: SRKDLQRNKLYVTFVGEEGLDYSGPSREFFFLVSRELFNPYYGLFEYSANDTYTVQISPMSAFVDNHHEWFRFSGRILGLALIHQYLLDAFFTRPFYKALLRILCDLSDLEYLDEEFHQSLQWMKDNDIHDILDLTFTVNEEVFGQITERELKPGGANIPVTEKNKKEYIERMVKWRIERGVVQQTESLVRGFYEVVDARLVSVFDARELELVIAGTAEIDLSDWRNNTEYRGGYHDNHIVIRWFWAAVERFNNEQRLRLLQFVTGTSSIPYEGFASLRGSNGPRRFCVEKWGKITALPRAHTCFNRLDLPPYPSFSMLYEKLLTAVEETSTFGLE
UniProt Q8C6L5, whole entry, looked up: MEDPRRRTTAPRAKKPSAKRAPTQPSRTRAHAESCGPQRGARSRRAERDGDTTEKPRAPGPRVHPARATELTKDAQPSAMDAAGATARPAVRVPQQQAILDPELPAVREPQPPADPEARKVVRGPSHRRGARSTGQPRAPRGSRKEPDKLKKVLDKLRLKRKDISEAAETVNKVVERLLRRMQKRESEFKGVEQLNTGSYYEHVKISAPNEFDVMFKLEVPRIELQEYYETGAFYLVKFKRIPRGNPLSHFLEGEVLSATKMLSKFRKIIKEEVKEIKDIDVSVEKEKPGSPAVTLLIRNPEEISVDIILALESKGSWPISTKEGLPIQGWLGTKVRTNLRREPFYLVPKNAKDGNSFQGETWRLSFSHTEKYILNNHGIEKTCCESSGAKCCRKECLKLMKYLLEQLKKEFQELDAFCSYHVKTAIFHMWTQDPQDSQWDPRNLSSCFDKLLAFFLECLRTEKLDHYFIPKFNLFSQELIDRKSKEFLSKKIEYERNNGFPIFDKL
UniProt P07384, whole entry: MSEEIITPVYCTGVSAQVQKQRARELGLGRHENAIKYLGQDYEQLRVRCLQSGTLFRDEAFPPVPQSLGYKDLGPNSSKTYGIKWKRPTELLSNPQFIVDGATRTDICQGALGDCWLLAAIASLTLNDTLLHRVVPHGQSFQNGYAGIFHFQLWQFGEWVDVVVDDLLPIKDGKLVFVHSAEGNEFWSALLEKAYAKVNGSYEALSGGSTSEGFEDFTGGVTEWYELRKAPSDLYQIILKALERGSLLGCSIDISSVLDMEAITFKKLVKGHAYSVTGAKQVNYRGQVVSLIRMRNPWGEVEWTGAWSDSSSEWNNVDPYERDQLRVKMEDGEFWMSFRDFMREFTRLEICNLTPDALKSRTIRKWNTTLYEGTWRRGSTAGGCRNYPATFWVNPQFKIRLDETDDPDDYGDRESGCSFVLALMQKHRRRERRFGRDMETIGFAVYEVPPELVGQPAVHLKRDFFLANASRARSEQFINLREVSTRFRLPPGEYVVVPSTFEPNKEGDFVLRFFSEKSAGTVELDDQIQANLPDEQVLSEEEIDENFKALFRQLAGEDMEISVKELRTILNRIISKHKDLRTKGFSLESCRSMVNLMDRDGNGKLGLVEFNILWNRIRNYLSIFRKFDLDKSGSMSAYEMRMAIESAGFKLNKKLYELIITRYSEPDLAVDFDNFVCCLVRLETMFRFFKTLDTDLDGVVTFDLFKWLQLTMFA
UniProt P46934, whole entry, looked up: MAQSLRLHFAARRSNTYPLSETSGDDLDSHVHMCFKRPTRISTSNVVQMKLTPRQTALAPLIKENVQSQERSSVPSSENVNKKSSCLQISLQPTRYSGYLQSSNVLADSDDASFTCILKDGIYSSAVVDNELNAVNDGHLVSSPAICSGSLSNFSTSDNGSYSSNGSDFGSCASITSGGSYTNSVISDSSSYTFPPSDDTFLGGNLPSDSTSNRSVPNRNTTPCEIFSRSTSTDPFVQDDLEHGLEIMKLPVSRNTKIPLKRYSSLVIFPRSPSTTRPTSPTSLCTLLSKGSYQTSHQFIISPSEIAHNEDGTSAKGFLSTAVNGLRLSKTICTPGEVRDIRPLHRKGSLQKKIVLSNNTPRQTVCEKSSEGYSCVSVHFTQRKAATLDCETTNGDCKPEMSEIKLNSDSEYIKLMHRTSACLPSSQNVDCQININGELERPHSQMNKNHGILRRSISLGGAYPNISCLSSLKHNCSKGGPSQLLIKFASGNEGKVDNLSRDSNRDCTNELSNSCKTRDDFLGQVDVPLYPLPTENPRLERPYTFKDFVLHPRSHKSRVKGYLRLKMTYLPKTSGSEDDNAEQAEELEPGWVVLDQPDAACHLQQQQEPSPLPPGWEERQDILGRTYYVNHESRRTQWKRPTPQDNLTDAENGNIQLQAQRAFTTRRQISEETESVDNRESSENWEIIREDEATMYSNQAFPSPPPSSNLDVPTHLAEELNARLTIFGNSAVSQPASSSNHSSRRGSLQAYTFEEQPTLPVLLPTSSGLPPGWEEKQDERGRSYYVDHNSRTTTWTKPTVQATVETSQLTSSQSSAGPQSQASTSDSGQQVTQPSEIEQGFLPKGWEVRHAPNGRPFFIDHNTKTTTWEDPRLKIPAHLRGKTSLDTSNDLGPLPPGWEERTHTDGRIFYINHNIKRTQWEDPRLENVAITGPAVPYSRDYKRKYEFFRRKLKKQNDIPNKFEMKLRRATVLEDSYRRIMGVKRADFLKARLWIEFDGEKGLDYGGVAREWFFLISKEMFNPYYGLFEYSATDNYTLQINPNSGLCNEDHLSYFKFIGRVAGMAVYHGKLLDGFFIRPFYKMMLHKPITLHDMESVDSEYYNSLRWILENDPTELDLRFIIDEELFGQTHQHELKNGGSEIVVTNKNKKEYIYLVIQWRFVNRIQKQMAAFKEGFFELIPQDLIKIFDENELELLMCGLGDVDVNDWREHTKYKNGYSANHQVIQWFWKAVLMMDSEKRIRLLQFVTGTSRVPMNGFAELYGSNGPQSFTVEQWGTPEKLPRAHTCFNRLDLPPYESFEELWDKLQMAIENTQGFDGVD

Compound = O=C(Nc1cccc(F)c1)c1cc(S(=O)(=O)N2CCOCC2)c(Cl)cc1Cl; target = Autotaxin (ENPP2, Homo sapiens, UniProt Q13822); test = enzyme activity; setting = 10 µM, 2 h, 37 °C, with: 100 µM LPC 18:0; inhibition = 43.6 ± 2.6%
Compound = CC[C@@]1(c2cccc(C)c2)C(=O)N(C(=O)OC)N1C(=O)OC; target = Palmitoyl-protein thioesterase ABHD10, mitochondrial (Mus musculus, UniProt Q6PE15); test = inhibitor, competitive ABPP-MudPIT; system = mouse brain proteome; setting = 2 µM; scale = baseline: DMSO; inhibition = inhibited
Compound = C[C@@H](OCCCCCN1C[C@H](O)[C@@H](O)[C@H](O)[C@@H]1CO)c1ccc(-c2ccccc2)cc1; target = GBA2; test = inhibitor, FluoPol-ABPP competition; system = GBA2-overexpressing cell lysate; setting = 0.1 µM; inhibition = 0.1%
Compound = COc1ccc2[nH]cc(/C=C/c3cccc([N+](=O)[O-])c3)c2c1; target = APP Aβ1-40; test = Aβ40 aggregation, thioflavin T fluorescence; setting = 25 µM; inhibition = 41%
Compound = FC(F)(F)c1ccc2c(c1)CCC/C2=N\OCCCN1CCCCC1; target = Sigmar1; test = radioligand binding; system = rat; setting = 10 µM; inhibition = 95.1%
Compound = CN(C)C(=O)Cn1cc(-c2ccc(-c3cncc4ccncc34)cc2)cn1; target = CDK1 (Homo sapiens, UniProt P06493); test = enzyme activity, SelectScreen; setting = concentration not given; inhibition = no inhibition
Compound = O=C(NOCc1ccccc1)c1cccc([N+](=O)[O-])c1; target = SIRT6 (Homo sapiens, UniProt Q8N6T7); test = deacetylase activity, fluorogenic; setting = 100 µM, with: RHKK-ac-AMC; inhibition = 16.8 ± 2.98%
Compound = COc1ccc2[nH]cc(/C=C/c3ccc([N+](=O)[O-])cc3F)c2c1; target = APP Aβ1-40; test = Aβ40 aggregation, thioflavin T fluorescence; setting = 25 µM; inhibition = 64%
Compound = O=C(CF)c1ccc2c(Nc3ccccc3)ncnc2c1; target = EPHB3 (Homo sapiens, UniProt P54753); test = kinase activity, inhibitor; setting = 2 µM; scale = baseline: DMSO; inhibition = > 80%
Compound = O=C(O)c1cc2c(s1)CCC2; target = Protein tyrosine phosphatase type IVA 3, with CNNM4 CBS domain (PTP4A3, Homo sapiens, UniProt O75365); test = protein-protein interaction, HTRF; setting = 10 µM; inhibition = 60.2 ± 0.4%
Compound = CCOC(=O)/C=C/CNCCCCN1c2ccccc2CCc2ccc(Cl)cc21; target = E3 ubiquitin-protein ligase HECW2 (HECW2, Homo sapiens, UniProt Q9P2P5); test = ubiquitination, Ub-TR-FRET; setting = concentration not given, up to high concentrations; inhibition = no inhibition
Compound = CCNC(=O)C(=O)[C@H](Cc1ccccc1)NC(=O)[C@H]1CCC(=O)N1Cc1ccc(F)cc1; target = CTSK; test = enzyme activity, inhibitor; setting = 1 µM; inhibition = 8.3%
Compound = COC(=O)/C(=C/c1c[nH]c2ccc(C#N)cc12)c1ccc(F)cc1; target = APP Aβ1-40; test = Aβ40 aggregation, thioflavin T fluorescence; setting = 25 µM; inhibition = 0%
Compound = CCCCCCCCCCCCNC(=S)NCCCC[C@H](NC(=O)c1ccccc1)C(=O)N[C@H](C)C(=O)N[C@@H](CCCNC(=N)N)C(N)=O; target = SIRT3; test = deacetylation, inhibitor; setting = 10 µM, with: acetylated peptide 50 µM; inhibition = 21%
Compound = CNc1nc(C#Cc2ccc(Cl)s2)nc2c1ncn2[C@H]1[C@H](O)[C@H](O)[C@]2(C#N)C[C@H]12; target = SLC6A4; test = binding, radioligand binding; system = HEK293; setting = 10 µM, negative means enhanced binding, with: [3H]citalopram; inhibition = 19 ± 11%
Compound = Cc1ccc(S(=O)(=O)Oc2ccc(/C=C/c3c[nH]c4ccc(C#N)cc34)cc2)cc1; target = APP Aβ1-40; test = Aβ40 aggregation, thioflavin T fluorescence; setting = 25 µM; inhibition = 23%
Compound = CCCCCCCCCCCCNC(=S)NCCCC[C@H](NS(=O)(=O)c1ccccc1)C(=O)N[C@H](C)C(=O)N[C@@H](CCCNC(=N)N)C(N)=O; target = SIRT3; test = deacetylation, inhibitor; setting = 10 µM, with: acetylated peptide 50 µM; inhibition = 17%
Compound = Nc1ccc(-c2cc(Cl)c(Cl)c3[nH]c4c(c23)CN(C(=O)CO)CC4)cn1; target = Cgas (Mus musculus, UniProt Q8C6L5); test = inhibitor, pyrophosphatase-coupled; setting = concentration not given; inhibition = inactive
Compound = CC(=O)Nc1ccc(/C=C/c2c[nH]c3ccc(F)cc23)cc1; target = APP Aβ1-40; test = Aβ40 aggregation, thioflavin T fluorescence; setting = 25 µM; inhibition = 72%
Compound = CCOC(=O)[C@@]12C[C@@H]1[C@@H](n1cnc3c(NC)nc(C#Cc4ccc(Cl)s4)nc31)[C@H](O)[C@@H]2O; target = SLC6A4; test = binding, radioligand binding; system = HEK293; setting = 10 µM, negative means enhanced binding, with: [3H]citalopram; inhibition = 17 ± 9%
Compound = C/C(=N\OCCNCC1CC1)c1ccc(C(F)(F)F)cc1; target = Sigmar1; test = radioligand binding; system = rat; setting = 10 µM; inhibition = 91.3%
Compound = N#Cc1ccc2[nH]cc(/C=C/c3cccnc3)c2c1; target = APP Aβ1-40; test = Aβ40 aggregation, thioflavin T fluorescence; setting = 25 µM; inhibition = 11%
Compound = CCOC(=O)C1=C(C)NC2=C(C(=O)CC(C)(C)C2)C1c1ccc(OCC(=O)NN=Cc2cccc(C=O)c2)cc1OCC(=O)NN=Cc1cccc(C=O)c1 (stereo not shown); target = MAL32 (Saccharomyces cerevisiae, UniProt P38158); setting = 0.5 mM, pH 6.8; inhibition = 92.5%
Compound = N#Cc1ccc2[nH]cc(/C=C/c3ccccc3)c2c1; target = APP Aβ1-40; test = Aβ40 aggregation, thioflavin T fluorescence; setting = 25 µM; inhibition = 0%
Compound = O=C(NCc1ccc(F)cc1)C(=O)[C@H](Cc1ccccc1)NC(=O)[C@H]1CCC(=O)N1Cc1ccc(F)cc1; target = CAPN1 (Homo sapiens, UniProt P07384); test = enzyme activity, inhibitor; setting = 1 µM; inhibition = 96.7%
Compound = O=C(OC(C(F)(F)F)C(F)(F)F)N1CCc2ccc(Br)cc2C1; target = MGLL; test = inhibitor, fluorescence; setting = 1 µM, with: AHMMCE substrate; inhibition = inactive
Compound = OC[C@@H]1[C@@H](O)[C@H](O)[C@@H](O)CN1CCCCCOCc1ccc(-c2cccnc2)cc1; target = GBA2; test = inhibitor, FluoPol-ABPP competition; system = GBA2-overexpressing cell lysate; setting = 0.1 µM; inhibition = 4.4%
Compound = COC(=O)/C=C/CNC(=O)c1c(C)n(C2CCCC2)c2ccc(OC)cc12; target = E3 ubiquitin-protein ligase NEDD4 (Homo sapiens, UniProt P46934); test = ubiquitination, inhibitor, Ub-TR-FRET; setting = 11 µM, HECT domain; inhibition = 37 ± 16%
Compound = N#Cc1ccc2[nH]cc(/C=C/c3ccc(CO)cc3)c2c1; target = APP Aβ1-40; test = Aβ40 aggregation, thioflavin T fluorescence; setting = 25 µM; inhibition = 11%
Compound = O=C(OC(C(F)(F)F)C(F)(F)F)N1CCc2cccc(Br)c2C1; target = MGLL; test = inhibitor, fluorescence; setting = 1 µM, with: AHMMCE substrate; inhibition = inactive
Compound = CCNC(=O)C(=O)[C@H](Cc1ccccc1)NC(=O)[C@H]1CCC(=O)N1Cc1ccccc1; target = CTSK; test = enzyme activity, inhibitor; setting = 1 µM; inhibition = 5.6%

A few entries again:
Compound = CCOC(=O)C1=C(C)NC2=C(C(=O)CC(C)(C)C2)C1c1ccc(OCC(=O)NN=Cc2cccc(C=O)c2)cc1OCC(=O)NN=Cc1cccc(C=O)c1 (stereo not shown); target = MAL32 (Saccharomyces cerevisiae, UniProt P38158); setting = 0.5 mM, pH 6.8; inhibition = 92.5%
Compound = CN(C)C(=O)Cn1cc(-c2ccc(-c3cncc4ccncc34)cc2)cn1; target = CDK1 (Homo sapiens, UniProt P06493); test = enzyme activity, SelectScreen; setting = concentration not given; inhibition = no inhibition
Compound = FC(F)(F)c1ccc2c(c1)CCC/C2=N\OCCCN1CCCCC1; target = Sigmar1; test = radioligand binding; system = rat; setting = 10 µM; inhibition = 95.1%
Compound = CC(=O)Nc1ccc(/C=C/c2c[nH]c3ccc(F)cc23)cc1; target = APP Aβ1-40; test = Aβ40 aggregation, thioflavin T fluorescence; setting = 25 µM; inhibition = 72%
